# Measurements gathered from unrelated publications.
# Compare with care: the assays were run in different laboratories. Values joined by “and” are separate records of one study, mostly repeats; a detail may differ. Numbers after ± are the reported error.
SMILES,target or system,test,system,setting,scale,quantity,result
C=CCn1c(=O)c2cnc(Nc3ccc(N4CCN(C)CC4)cc3)nc2n1-c1ccc2c(n1)[C@@](O)(CC)CC2,,,"TOV21G xenograft, BALB/c nude mice","oral, 80 mg/kg once daily x 19, day 20",reference: vehicle,tumour growth inhibition,104%
c1ccc(-c2n[nH]cc2-c2ccnc3ccccc23)nc1,,"kinase binding, competitor, MIB/MS competition, measured: SCH9",Candida albicans cell lysate,10 µM,reference: DMSO,log2 fold change,1.07
CN[C@@H]1COc2c(S(=O)(=O)NC(=O)Nc3c4c(cc5c3CCC5)CCC4)cnn2C1,,measured: IL-18,"human participants, whole blood ex vivo","900 mg twice daily, multiple doses, 156 h, IL-18, circulating, adjusted for, added: LPS/ATP",reference: baseline,inhibition,99%
N#Cc1ccn2c(-c3ccncc3)c(-c3ccc(F)cc3)nc2c1,,"kinase binding, competitor, MIB/MS competition, measured: TOR1",Candida albicans cell lysate,100 nM,reference: DMSO,log2 fold change,-0.128
COc1ccccc1OCC(O)CN1CCN(CC(=O)Nc2c(C)cccc2C)CC1 (stereo not drawn),Nedd8-cullin1 interaction,"neddylation, AlphaScreen",,100 µM,,inhibition,14.2%
COc1ccccc1[C@H](Cn1c(=O)n(C(C)(C)C(=O)O)c(=O)c2c(C)c(-c3ncco3)sc21)OC1CCOCC1,,"[1-13C]acetate infusion, isotopomer analysis","overweight or obese healthy men, plasma VLDL-TG palmitate","oral, 20 mg single dose, 8 h post-dose, added: oral fructose",,fractional hepatic DNL,16.5 % new palmitate
CCN(CC)CCNC(=O)c1cc(S(C)(=O)=O)cnc1OC.Cl,,catalepsy bar test,female CD-1 mice,"intraperitoneal, 200 mg/kg, 90 min after dosing",,time on bar,0.43 s and 6.79 s and 0.83 s and 2.02 s and 0.5 s
C[C@@H]1CCC[C@H](n2cnc(-c3cc(Cl)ccc3-n3cc(Cl)nn3)cc2=O)c2cc(ccn2)-c2c(cnn2C(F)F)NC1=O,,,rat plasma,"IC2.5× aPTT, STA-PTT reagent",,concentration for aPTT prolongation,> 40 µM
Cn1cc(Nc2nccc(-c3ccc4c(c3)CN(C3COC3)CC[C@H]4NC(=O)c3cn(C(C)(C)C)nn3)n2)cn1,,measured: cAMP-mediated signaling,"splenic B cells, mouse","in vivo, 30 mg/kg, IgD-activated B cells","reference: vehicle, positive = activation",pathway activation z-score,2.45
CCOc1c([C@H](C)n2nc(C)c3c(N)ncnc32)cc(Cl)c(F)c1[C@@H]1CNC(=O)C1,,"Olink proximity extension proteomics, measured: FCER2","human FL or MZL patients, plasma","dose not given, week 8",reference: baseline,plasma protein level change,-51%
O=P(O)(O)C(Cl)(Cl)P(=O)(O)O,,"immunostaining, measured: F4/80","mouse, subarachnoid haemorrhage, meningeal perivascular",23000 µg/mL,,macrophage density,5.84 cells/mm²
N#CCC1CCN(c2nc(Nc3ccc(N4CCC(O)CC4)cc3)c3c(=O)[nH]ncc3n2)CC1,,"Olink multiplex, measured: CDCP1","human, serum","20 mg, day 29",reference: baseline,fold change from baseline,-1.1
CC1(C)CCC(CN2CCN(c3ccc(C(=O)NS(=O)(=O)c4ccc(NCC5CCOCC5)c([N+](=O)[O-])c4)c(Oc4cnc5[nH]ccc5c4)c3)CC2)=C(c2ccc(Cl)cc2)C1,,"cell kill, PI exclusion flow cytometry","nodal neoplastic cells, human",24 h,,EC50,3.5 nM
Cc1cc([C@H]2C[C@H]3[C@@H](CF)SC(N)=N[C@@]3(c3ccc(F)cc3F)CO2)on1,,measured: Aβx-40,"wild-type mouse, brain","subcutaneous, 30 mg/kg, 1 h",,brain Aβ40 level,1.76 ng/g
Cc1cc(Nc2ccc(S(F)(F)(F)(F)F)cc2)n2nc(C(C)(F)F)nc2n1,,measured: dihydroorotate,"female CD-1 mice, pooled urine","oral, 300 mg/kg daily, 8-24 h after dose 1",,DHO concentration,5.22 ± 0.764 µM
CC(=O)NCC(=O)NCC(=O)N[C@H](C(=O)N[C@@H](Cc1ccc(O)cc1)C(=O)N[C@@H](CO)C(=O)N[C@H]1CSSC[C@@H](C(=O)N[C@@H](CCCNC(=N)N)C(=O)N2CCC[C@H]2C(=O)N[C@@H](CCC(N)=O)C(=O)N[C@@H](CCCNC(=N)N)C(=O)NCC(=O)NCCC(=O)N[C@@H](CCCCNC(=O)CN(CC(=O)NCCCC[C@H](NC(=O)CCNC(=O)CNC(=O)[C@H](CCCNC(=N)N)NC(=O)[C@H](CCC(N)=O)NC(=O)[C@@H]2CCCN2C(=O)[C@H](CCCNC(=N)N)NC(=O)[C@@H]2CSSC[C@H](NC(=O)[C@H](CO)NC(=O)[C@H](Cc3ccc(O)cc3)NC(=O)[C@@H](NC(=O)CNC(=O)CNC(C)=O)[C@@H](C)O)C(=O)N[C@@H](Cc3c[nH]cn3)C(=O)N[C@@H](Cc3ccccc3)C(=O)NCC(=O)N[C@@H](C)C(=O)N[C@@H](CC(C)C)C(=O)N[C@@H]([C@@H](C)O)C(=O)N[C@@H](Cc3c[nH]c4ccccc34)C(=O)N[C@@H](C(C)C)C(=O)N2)C(N)=O)C(=O)CCN)C(N)=O)NC(=O)[C@H](C(C)C)NC(=O)[C@H](Cc2c[nH]c3ccccc23)NC(=O)[C@H]([C@@H](C)O)NC(=O)[C@H](CC(C)C)NC(=O)[C@H](C)NC(=O)CNC(=O)[C@H](Cc2ccccc2)NC(=O)[C@H](Cc2c[nH]cn2)NC1=O)[C@@H](C)O,,,healthy BALB/c mice,"subcutaneous, 0.16 mg/kg, 8 d, single dose",,haematocrit,40.8%
C[C@@H]1CCN(C(=O)CC#N)C[C@@H]1N(C)c1ncnc2[nH]ccc12,,,"mice, DSS-induced colitis",10 mg/kg,,disease activity index,0
CC(COc1ccccc1)NC(C)C(O)c1ccc(O)cc1 (stereo not drawn),Nedd8-cullin1 interaction,"neddylation, AlphaScreen",,100 µM,,inhibition,102%
C[C@@H](NC(=O)N1C(=O)[C@H](Cc2ccnc(N)c2)[C@H]1C(=O)O)C1CCCCC1,,,human,"iv infusion, 1.5 mg/kg/h, 24 h",,aPTT AUEC,7370 h·s
O=C1N[C@H](c2cncc(C#Cc3ccccc3)c2)[C@@H](c2ccccc2Cl)O1,,SV2A PET,"dKI mice, hippocampus","dose not given, 1 month",reference: baseline,synaptic density increase,17%
N#Cc1ccc2c(-c3ccncc3)c(-c3ccc(F)cc3)nn2c1,,"kinase binding, competitor, MIB/MS competition, measured: MKK2",Candida albicans cell lysate,100 nM,reference: DMSO,log2 fold change,-0.449
COc1ccc(-c2cncc(N[C@@H](C)c3cccc(NC(=O)c4cncc(C)c4)c3)n2)cc1OC,,measured: rno-miR-362-3p,"rat SU5416/hypoxia model, lung","dose not given, unit not given",reference: SU5416/hypoxia vehicle,delta delta Ct,0.692
OC(CCN1CCCCC1)(c1ccccc1)C1CC2C=CC1C2 (stereo not drawn),,resting-state EEG,healthy elderly humans,"oral, 4 mg, eyes closed, LS mean",reference: baseline,change in EEG Beta1-power Pz-O1,-16.6%
CC(=O)Oc1cc2c(s1)CCN(C(C(=O)C1CC1)c1ccccc1F)C2 (stereo not drawn),,"platelet aggregation, light transmission aggregometry","human patients, platelet-rich plasma","dose not given, 1 h, inhibition threshold 90%, added: TRAP 15 µM",,patients with inhibition above threshold,0%
C[C@H]1C[C@H]2CSC(N)=N[C@@]2(c2nc(NC(=O)c3ccc(OC(F)F)cn3)cs2)CO1,,measured: Aβx-40,"healthy adults, plasma","15 mg once daily, day 2",reference: placebo,percent change from baseline,-43.9%
Cc1n[nH]c2ccc(-c3cc(OC[C@@H](N)Cc4ccccc4)cnc3-c3ccoc3)cc12,,"kinase binding, competitor, MIB/MS competition, measured: KIN2",Candida albicans cell lysate,1 µM,reference: DMSO,log2 fold change,-0.118
C[C@H](Oc1ccc(Br)cc1-c1ccon1)C(=O)O,,muscle velocity recovery cycles,"human, tibialis anterior muscle","400 mg twice daily, multiple doses, frequency ramp, last response at 15 Hz",reference: placebo,peak amplitude change,-8.69%
O=C(O)CNC(=O)Cc1ccccc1,,,"ventricular cardiomyocytes, C57BL/6 mouse","dose not given, 0.028 s",,sarcomere length,1.72 µm
C=Cc1c(C)c2cc3nc(c(CC(=O)O)c4[nH]c(cc5nc(cc1[nH]2)C(C)=C5CC)c(C)c4C(=O)O)[C@@H](CCC(=O)O)[C@@H]3C,,flow cytometry,"4T1 tumour-bearing mice, spleen",dose not given,,effector memory T cells,28.3% and 37.7% and 47.3%
C[N+](C)(C)CCOC(N)=O,,field potential oscillations,"mouse, hippocampal slice CA1 stratum pyramidale",20 µM,reference: baseline,beta-band power,28 fold
CC[C@H](C)[C@H](NC(=O)[C@H](CCC(=O)O)NC(=O)[C@H](CO)NC(=O)[C@@H](NC(=O)[C@@H](N)CO)C(C)C)C(=O)N[C@@H](CCC(N)=O)C(=O)N[C@@H](CC(C)C)C(=O)N[C@@H](CCSC)C(=O)N[C@@H](Cc1c[nH]cn1)C(=O)N[C@@H](CC(N)=O)C(=O)N[C@@H](CC(C)C)C(=O)NCC(=O)N[C@@H](CCCCN)C(=O)N[C@@H](Cc1c[nH]cn1)C(=O)N[C@@H](CC(C)C)C(=O)N[C@@H](CC(N)=O)C(=O)N[C@@H](CO)C(=O)N[C@@H](CCSC)C(=O)N[C@@H](CCC(=O)O)C(=O)N[C@@H](CCCNC(=N)N)C(=O)N[C@H](C(=O)N[C@@H](CCC(=O)O)C(=O)N[C@@H](Cc1c[nH]c2ccccc12)C(=O)N[C@@H](CC(C)C)C(=O)N[C@@H](CCCNC(=N)N)C(=O)N[C@@H](CCCCN)C(=O)N[C@@H](CCCCN)C(=O)N[C@@H](CC(C)C)C(=O)N[C@@H](CCC(N)=O)C(=O)N[C@@H](CC(=O)O)C(=O)N[C@H](C(=O)N[C@@H](Cc1c[nH]cn1)C(=O)N[C@@H](CC(N)=O)C(=O)N[C@@H](Cc1ccccc1)C(N)=O)C(C)C)C(C)C,,measured: blood Ca2+,female CD1 mice,"subcutaneous, 40 nmol/kg",,time to maximum blood calcium,~1 h
CN(C)C(=O)Oc1cccc([N+](C)(C)C)c1,,neuromuscular block reversal,rat,"dose not given, 11 (unit not given), added: cisatracurium",reference: T1 twitch,train-of-four ratio,85
NC(=O)c1cnc2[nH]ccc2c1N[C@@H]1[C@@H]2CC3C[C@H]1C[C@@](O)(C3)C2,,"flow cytometry, measured: CD4+ effector T cells","Japanese healthy subjects, peripheral blood","oral, 30 mg twice daily, day 7",,change from baseline,-0.05%
Cn1cc(Nc2nc(N)nc(-c3cccc(-n4ccc5cc(C6CC6)cc(F)c5c4=O)c3CO)n2)cn1,,"CD63 upregulation, anti-IgE-induced","human, multiple ascending dose, whole blood basophils ex vivo","150 mg twice daily, day 14, 12 h",,inhibition,76.1%
O=C(O)/C=C/c1ccc(Cn2ccnc2)cc1,,,"Rattus norvegicus, MCAO/R model, plasma","iv, dose not given, 4 h post-treatment",,thrombin time,62.8 s
O=C(O)C1=CC(=C(c2ccc(O)c(C(=O)O)c2)c2ccc(O)c(C(=O)O)c2)C=CC1=O,,"immunohistochemistry, measured: F4/80","C57BL/6J mouse MC-38 tumour, tumour necrotic areas","peritumoral, dose not given",reference: vehicle,macrophage signal,decreased

# For quick reference, copied from above:
SMILES,target or system,test,system,setting,scale,quantity,result
CC(=O)Oc1cc2c(s1)CCN(C(C(=O)C1CC1)c1ccccc1F)C2 (stereo not drawn),,"platelet aggregation, light transmission aggregometry","human patients, platelet-rich plasma","dose not given, 1 h, inhibition threshold 90%, added: TRAP 15 µM",,patients with inhibition above threshold,0%
C[C@H]1C[C@H]2CSC(N)=N[C@@]2(c2nc(NC(=O)c3ccc(OC(F)F)cn3)cs2)CO1,,measured: Aβx-40,"healthy adults, plasma","15 mg once daily, day 2",reference: placebo,percent change from baseline,-43.9%
Cc1n[nH]c2ccc(-c3cc(OC[C@@H](N)Cc4ccccc4)cnc3-c3ccoc3)cc12,,"kinase binding, competitor, MIB/MS competition, measured: KIN2",Candida albicans cell lysate,1 µM,reference: DMSO,log2 fold change,-0.118
C[C@H](Oc1ccc(Br)cc1-c1ccon1)C(=O)O,,muscle velocity recovery cycles,"human, tibialis anterior muscle","400 mg twice daily, multiple doses, frequency ramp, last response at 15 Hz",reference: placebo,peak amplitude change,-8.69%
O=C(O)CNC(=O)Cc1ccccc1,,,"ventricular cardiomyocytes, C57BL/6 mouse","dose not given, 0.028 s",,sarcomere length,1.72 µm
